Published values gathered from unrelated publications.
Parts stem from different laboratories: compare values within a part only. Changes are numbered by the printed parent chain.

Sample 1 — technique: protein-binding microarray; form: double-stranded DNA, one strand shown; medium: in vitro; tested at: 2200 nM top; notes: 60-bp whole probe; with: salmon DNA 0.4 mg/ml; relative to: random background probes; direction: higher = stronger binding; measurement: fitted relative affinity; all sequences stand within: GCCTAGCAC … GTCTTGATTCGCTTGACGCTGCTG
Target: Interferon regulatory factor 7, full length, phosphomimetic (IRF7, Homo sapiens, UniProt Q92985, residues 1-503, S471D/S472D/S475D/S476D/S477D/S483D/S484D/S487D)
TTAGGATTGCTTCTCCTTTAGTGCTAG: 0.968 z-score
CACGATCTCAGTATCGAGACGTGCTAG: 0.612 z-score
GACGGACTCGGGTTTCGGGACGTGCTA: 1.49 z-score
GACGGTATCCGTCTCCTGACGTGCTAG: 0.568 z-score
TCATTTTCCTTATTGCTTACTGTGCTA: 4.26 z-score
CTTTATTTAAGCTCCTATCTTGTGCTA: 0.613 z-score
GACGGACTGCTTCACCTGACGTGCTAG: 0.26 z-score
TCATGTGTCTTAAATAGGACTGTGCTA: 0.119 z-score
TCATGTCTGTTTCCTCTTACTGTGCTA: 2.91 z-score
GACGATTTCAGTCTGGAGACGTGCTAG: 0.604 z-score
TTAGATCTGAGTTTCGATTAGTGCTAG: 4.14 z-score
GACGGTATCGACACTGGCGACGTGCTA: -0.255 z-score
TTTTTTTTGGAATGTCTTCCCGTGCTA: 1.34 z-score
TTAGGTATCGACACTGGGATAGTGCTA: -0.126 z-score
CACGATTTCAGTTCCGAGACGTGCTAG: 2.35 z-score
GACGGTTTCGGATTCGGGACGTGCTAG: 8.42 z-score
TCAAATTGTCTTTTCACACTGTGCTAG: 0.939 z-score
TTAGATCTCAGACTGGACTAGTGCTAG: -0.156 z-score
TTAGGACTGGGTTTCGGTAAGTGCTAG: 0.876 z-score
TTCAATTCCTGAAATCTCTTTGTGCTA: 0.577 z-score
TTGAAAAAATATTTATTTCAGTGCTAG: -0.879 z-score

Sample 2 — Substance: BRCA1 RING domain (UniProt P38398); technique: yeast two-hybrid; medium: yeast; notes: mostly zero background; relative to: not given; direction: higher = stronger interaction; measurement: lacZ reporter activity
UBE2J2 UBC core domain (UniProt Q8N2K1): 2400
UBE2B UBC core domain (UniProt P63146): 0
UBE2T UBC core domain (UniProt Q9NPD8): 0
UBE2M UBC core domain (UniProt P61081): 0
UBE2C UBC core domain (UniProt O00762): 0
UBE2J1 UBC core domain (UniProt Q9Y385): 0
UBE2E3 UBC core domain (UniProt Q969T4): 0
UBE2I UBC core domain (UniProt P63279): 0
UBE2D1 UBC core domain (UniProt P51668): 0
UBE2O UBC core domain (UniProt Q9C0C9): 0
UBE2G1 UBC core domain (UniProt P62253): 0
UBE2Q1 UBC core domain (UniProt Q7Z7E8): 0
BIRC6 UBC core domain (UniProt Q9NR09): 0
UBE2S UBC core domain (UniProt Q16763): 0
UBE2L3 UBC core domain (UniProt P68036): 0
UBE2Z UBC core domain (UniProt Q9H832): 0
UBE2R2 UBC core domain (UniProt Q712K3): 0

Sample 3 — technique: DHFR PCA, deep sequencing; medium: yeast; with: (+)-ABA 1.4 µM; relative to: wild-type fitted maximum; direction: higher = stronger binding; measurement: relative binding score
Target: ABI1, truncated, D143A, DHFR fusion (Arabidopsis thaliana)
Notes: methotrexate growth selection, single substitutions
Starting sequence: PYL1, truncated, DHFR fusion (Arabidopsis thaliana); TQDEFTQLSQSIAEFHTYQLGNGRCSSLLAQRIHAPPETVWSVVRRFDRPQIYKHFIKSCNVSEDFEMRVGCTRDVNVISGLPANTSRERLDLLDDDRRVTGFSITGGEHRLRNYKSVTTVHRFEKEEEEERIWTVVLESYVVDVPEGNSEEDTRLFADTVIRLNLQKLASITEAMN
Y18G: -7.84%
G107Q: 4.1%
E128R: 44.4%
N77R: 73.4%
R155N: -13.3%
S87N: 9.06%
L82S: 1.23%
T135H: -16.2%
T1V: 79%
R74M: -15.7%
P83V: -2.48%
L29K: 5.92%
R99H: 62.6%
A170W: -14.3%
N61I: 66.1%
E139L: 7.86%
Y115N: 4.71%
T135P: 3.38%
S150F: -31.9%
S104C: 11.3%
V145F: -26.1%
N165L: 12.5%
G102Q: -1.73%

Sample 4 — technique: RNA Bind-n-Seq; form: RNA; medium: in vitro; tested at: 365 nM; relative to: no-protein control; direction: higher = stronger binding; measurement: RBNS enrichment (R)
Target: RNA binding protein fox-1 homolog 2, RRM domain, GST-SBP tag (RBFOX2, Homo sapiens, UniProt O43251-10, residues 100-194)
Notes: natural RNA segment, single round, ends assumed
All sequences stand within: GGGAGUUCUACAGUCCGACGAUC … UGGAAUUCUCGGGUGCCAA
Target sequence (chain): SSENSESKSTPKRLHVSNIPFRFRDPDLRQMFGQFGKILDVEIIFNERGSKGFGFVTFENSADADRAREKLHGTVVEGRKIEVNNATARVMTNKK
CUUGCUACACAUCCAUUUGGGGUGGACUAUCAGACCAGGCAAGCCAGUCCUAAAGGCUUCUGUGAAGGAAACCACAGAAAGUGAAAGAAGCAGAAUUAGAAAGAGCAUUC: 0.376
GUUUCUUUCGAAUGGCACUACUUUAGGGACAUUCUAGUAUUUGCUUCUAUUGUUUGGGCCUUGUGGAUAAUGUACAGAUUUAAAAACAAAUCUUGUUGCUGAUUUGUCCA: 0.322
GGCCGCCAUUUUGGCAAGACAAUCUGAAUGUGCCUUCCUGGAGCUGUCGGCUGGAAUCCCUCAUGAGUCAAGUACUGUACCUCCCUGGCACAUGAAACUCUGGGAUCCAG: 0.342
UAGGGUGCCCACAGCCUCUUUUGCAGAGGUCUGACUGGGAGGGCCCUGGCAGCCAUGUUUAGGAAACACAGUAUACCCACUCCCUGCACCACCAGACACGUGCCCACAUC: 0.319
GGCUGGUCUCAGGCUGACACUCGAAGGGUAGUAGAAAUAUCCCUUCUGGCCUAUUGUCUGCUUCGCUGUGUAGGUAGCCUGACUUGACAGAGGUUUCUCCUGGUUUUCCU: 0.2
UAUAUAUAUUUUUCCUUCACUGUGUCAAGUGGAAACAAAAACAAAAUCUUUCAAAAAAAAAAUCGGGACAAGUGAACACAUUAACAUGAUUCUGUUUGUGCAGAUUAAAA: 0.582
UACGUCUUUGGAGGAACAGCUCCCUAGUGGCUUCCUCCGUCUGCAAUGUCCCUUGCACAGCCCACACAUGAACCAUCCUUCCCAUGAUGCCGCUCUUCUGUCAUCCCGCU: 0.565
UUGGGGUUGAAAACUUAAAUGUGUAGUUCCAGUCCUUCUAUGCAGAGUCUCUCCUGCCCUCCCUCCUUCCUGCAGGCAAAUAUACAAGCUAGACCCUGUUCCCUCACCCU: 0.367
UUUCAUGUGUUAAGUUGCUUGAGUUACACCUUGUGACCCUUCUCCCAUAACAUGGUGUGAGGACGGACUGGGAGCCGGUACAGACUCCAGUGUUUACAGCCUUGCUUUCC: 0.625
UGAGUGCCAGAAGCUGCCUCCGUGGUUUGGUCACCGUGUGCAUCGCACCGUGCUGUAAAUGUGGCAGACGCAGCCUGCGGCCAGGCUUUUUAUUUAAUGUAAAUAGUUUU: 0.518
UUCAUGGGACUUUAAAAAGAAUAAGUAUUUGAGAAAAUAUCUGGUUCACUUACACUACAUUUACUGUAUUAUUCUUUUAUAGCAUUAGGUGCCUUGUAUUUUAAAUCUGU: 0.749
AUUUGUCUCAGCUGAGCCUGACAGGACAAGCAUAUAGAAAGACAAGAGGGGGAGAGAGCAGGGCAUUCUGCAGAGGGGACCGAUGGCAAGAGCAGCUGCAUGGGAUGUGU: 6.71

Sample 5 — technique: universal PBM; form: double-stranded DNA, one strand shown; medium: in vitro; tested at: not given; direction: higher = stronger binding; measurement: E-score
Target: Sal-like protein 4, full length isoform B (SALL4, Homo sapiens, UniProt Q9UJQ4-2, residues 1-616)
Notes: 8-mer, flanks averaged, mean of replicates
Residues (chain): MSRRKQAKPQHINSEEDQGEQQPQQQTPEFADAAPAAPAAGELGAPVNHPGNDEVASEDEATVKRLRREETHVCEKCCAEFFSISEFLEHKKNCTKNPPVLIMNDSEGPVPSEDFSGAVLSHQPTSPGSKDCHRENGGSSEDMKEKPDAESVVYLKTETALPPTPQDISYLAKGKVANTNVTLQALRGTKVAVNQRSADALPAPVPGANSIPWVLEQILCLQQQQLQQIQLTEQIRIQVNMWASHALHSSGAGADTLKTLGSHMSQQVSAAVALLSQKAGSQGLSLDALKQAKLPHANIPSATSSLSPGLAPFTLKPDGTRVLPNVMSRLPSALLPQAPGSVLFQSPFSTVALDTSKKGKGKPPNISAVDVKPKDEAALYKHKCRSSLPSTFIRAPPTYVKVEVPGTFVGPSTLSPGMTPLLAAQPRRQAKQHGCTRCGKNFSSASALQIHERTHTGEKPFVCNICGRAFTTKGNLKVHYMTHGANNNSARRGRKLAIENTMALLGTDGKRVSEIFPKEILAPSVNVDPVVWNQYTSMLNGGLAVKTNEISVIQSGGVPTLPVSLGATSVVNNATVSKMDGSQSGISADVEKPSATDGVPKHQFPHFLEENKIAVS
AGGTCTAA: 0.055
GTACGATA: 0.28
ACGCTTCT: -0.0698
AAGGCTCT: -0.159
ACACCAAT: 0.0783
ATGCGTGG: -0.109
CTCTTTAA: 0.0976
CTTTCTAA: 0.0415
ACTCTGAA: 0.0848
CTCGCGTA: -0.09
GAGGGGAA: -0.14
GCATAGAC: -0.0234
ATCGGGAA: -0.158
CATCTTTA: 0.14
CGTAATAG: 0.183
CTCAAGAA: -0.0137
GATAGGAA: 0.0476
GCTGTGCA: -0.283
CGTGTCAC: -0.0349
AGGCGAGG: -0.233
GAGGATCC: -0.226
TCCGAGCA: -0.188
AGTGGCCG: -0.328
AGAGCAAA: 0.16
ACCCGACG: -0.325

Repeated from above (sample 2):
UBE2E3 UBC core domain (UniProt Q969T4): 0
UBE2I UBC core domain (UniProt P63279): 0
UBE2D1 UBC core domain (UniProt P51668): 0
UBE2O UBC core domain (UniProt Q9C0C9): 0
UBE2G1 UBC core domain (UniProt P62253): 0
UBE2Q1 UBC core domain (UniProt Q7Z7E8): 0
BIRC6 UBC core domain (UniProt Q9NR09): 0
UBE2S UBC core domain (UniProt Q16763): 0
UBE2L3 UBC core domain (UniProt P68036): 0
UBE2Z UBC core domain (UniProt Q9H832): 0
UBE2R2 UBC core domain (UniProt Q712K3): 0
